Measurements collected from several papers.
Compare with care: the assays were run in different laboratories. Numbers after ± are the reported error.
Urease: Urease (Canavalia ensiformis, UniProt P07374)
ACE: Angiotensin-converting enzyme (ACE, Homo sapiens, UniProt P12821)
HDAC1: Histone deacetylase 1 (HDAC1, Homo sapiens, UniProt Q13547)

CN(C)CP(=O)(O)O — IC50 (Urease; enzyme activity, inhibitor, absorbance; pH 7): 82 µM
CSCC[C@@H]1NC(=O)[C@H](Cc2c[nH]c3ccccc23)NC(=O)[C@H](CCCNC(=N)N)NC(=O)[C@H](Cc2c[nH]c3ccccc23)NC(=O)[C@H](CCCNC(=N)N)NC(=O)[C@H](C)NC(=O)[C@@H](NC(=O)[C@@H](N)C(C)C)CSCC(=NOCC(=O)NCP(=O)(Oc2ccccc2)Oc2ccccc2)CSC[C@@H](C(=O)NCC(N)=O)NC(=O)[C@@H]2CCCN2C1=O — IC50 (Fluorophosphonate-binding serine hydrolase F (Staphylococcus aureus, UniProt Q2FUY3); inhibitor; 1 h preincubation, together with: 4-methylumbelliferyl heptanoate): 0.879 µM
O=C1C=CC(=O)C(c2cc(Cl)ccc2Cl)=C1 — IC50 (DUSP1 (Homo sapiens, UniProt P28562); enzyme activity, inhibitor): > 1 µg/mL
COc1c(OCCOCCOCCOCCOCCOCCOCCOCCOc2cccc(C(=O)C3CCN(CCc4ccc(F)cc4)CC3)c2OC)cccc1C(=O)C1CCN(CCc2ccc(F)cc2)CC1 — IC50 (HTR2A (Homo sapiens, UniProt P28223); phosphorylation in cells, antagonist): 0.192 µM
N#Cc1ccc(-c2c[nH]c(CNC(=O)Nc3ncc(Sc4ccccn4)s3)n2)cc1 — IC50 (enoyl-ACP reductase FabK (Clostridioides difficile, UniProt A0A031WIF2); enzyme activity, inhibitor, NADH fluorescence; together with: 150 µM crotonyl-CoA): 7.35 µM
c1cc2c(s1)CCOC21CCN(Cc2ccc3c(c2)OCCO3)CC1 — IC50 (Cytochrome P450 2D6 (CYP2D6, Homo sapiens, UniProt P10635); inhibitor): 0.5 µM
CC(=O)N[C@H]1[C@H](OC[C@H](NC(=O)[C@H](C)NC(=O)[C@@H](N)Cc2ccccc2)C(=O)NCC(=O)N[C@@H](CC(N)=O)C(=O)N[C@@H](Cc2ccc(O)cc2)C(=O)N[C@@H](CO)C(=O)N[C@@H](C)C(=O)N[C@@H](CC(C)C)C(=O)O)O[C@H](CO)[C@@H](O)[C@@H]1O — IC50 (Antigen peptide transporter 1/Antigen peptide transporter 2 (Homo sapiens, UniProt Q03518+Q03519); peptide translocation, competitor; permeabilized LCL721 cells; together with: iodinated peptide): 8 µM
Cc1ccc2c(n1)c(-c1cccc(S(C)(=O)=O)c1)c(C)n2C/C(F)=C/CN — IC50 (LOXL1 (Homo sapiens, UniProt Q08397); enzyme activity, inhibitor, fluorescence; with preincubation): 1.71 µM
NC(=O)CCC1CCCN(C(=O)c2c[nH]n3c2nc(=O)c2ccccc23)C1 (stereo not drawn) — IC50 (Procathepsin L (CTSL, Homo sapiens, UniProt P07711); enzyme activity, inhibitor, FRET): > 100 µM
CC(C)[C@H](NC(=O)c1ccc(CNc2nc3c(c(=O)[nH]2)CCC3)cc1)C(=O)NC1CNC1 — IC50 (MMP8 (Homo sapiens, UniProt P22894); enzyme activity, inhibitor): > 5 µM
O=C1c2c(ccc(O)c2O)CN1Cc1ccc(F)c(Cl)c1 — IC50 (Gag-Pol polyprotein, integrase (gag-pol, Human immunodeficiency virus 1, UniProt P12497); 3'-processing, inhibitor, gel-based; recombinant wild-type integrase): 83.9 ± 6.8 µM
N#Cc1cn([C@@H]2O[C@H](CSCC[C@H](N)C(=O)O)[C@@H](O)[C@H]2O)c2ncnc(N)c12 — IC50 (DNA (cytosine-5)-methyltransferase 3A, with DNMT3L (DNMT3A, Homo sapiens, UniProt Q9Y6K1); inhibitor): 0.1 ± 0.002 µM
OC[C@@H]1[C@H](O)[C@H](O)[C@@H](O)CN1CCCCCC12CC(C1)C2 — IC50 (GLA (Homo sapiens, UniProt P06280); enzyme activity, inhibitor, absorbance; pH 4.5): 59.3 µM
CC[C@H](C)[C@H](NC(=O)[C@H](Cc1ccc(O)cc1)NC(=O)[C@@H](NC(=O)[C@H](CCCNC(=N)N)NC(=O)[C@@H](N)CC(=O)O)C(C)C)C(=O)N[C@@H](Cc1cnc[nH]1)C(=O)N1CCC[C@H]1C(=O)N[C@@H](Cc1ccccc1)C(=O)O — IC50 (ACE; enzyme activity, inhibitor, HPLC): 82 µM
N#C[C@@]1(c2ccc3c(N)ncnn23)O[C@H](COP(=O)(O)OP(=O)(O)OP(=O)(O)O)[C@@H](O)[C@H]1O — IC50 (DNA-directed RNA polymerase II subunit RPB1/DNA-directed RNA polymerase II subunit RPB2 (Homo sapiens, UniProt P24928+P30876); enzyme activity, inhibitor): > 200 µM
O=C(CCCCCCC(=O)Nc1cccc(N=Nc2ccccc2)c1)NO — IC50 (HDAC1; enzyme activity, inhibitor; cis isomer, irradiated): 0.035 ± 0.023 µM
N=C(N)NCCC[C@@H]1NC(=O)[C@H](CCCCNC(=O)CCOCCOCCOCCOCCNC(=O)CC[C@H](NC(=O)CCOCCOCCOCCOCCNC(=O)CC[C@H](NC(=O)CN2CCN(CC(=O)O)CCN(CC(=O)O)CCN(CC(=O)O)CC2)C(=O)NCCOCCOCCOCCOCCC(=O)N[C@@H](CCC(=O)NCCOCCOCCOCCOCCC(=O)NCCCC[C@@H]2NC(=O)[C@@H](Cc3ccccc3)NC(=O)[C@H](CC(=O)O)NC(=O)CNC(=O)[C@H](CCCNC(=N)N)NC2=O)C(=O)NCCOCCOCCOCCOCCC(=O)NCCCC[C@@H]2NC(=O)[C@@H](Cc3ccccc3)NC(=O)[C@H](CC(=O)O)NC(=O)CNC(=O)[C@H](CCCNC(=N)N)NC2=O)C(=O)NCCOCCOCCOCCOCCC(=O)NCCCC[C@@H]2NC(=O)[C@@H](Cc3ccccc3)NC(=O)[C@H](CC(=O)O)NC(=O)CNC(=O)[C@H](CCCNC(=N)N)NC2=O)NC(=O)[C@@H](Cc2ccccc2)NC(=O)[C@H](CC(=O)O)NC(=O)CNC1=O — IC50 (Integrin alpha-V/beta-3 (Homo sapiens, UniProt P05106+P06756); ligand displacement, radioligand): 0.0003 µM
CC1(C)OC2OC(C(CCO)NC(=O)Nc3cccc(NC(=O)NC(CCO)C4OC5OC(C)(C)OC5C4OCc4ccccc4)c3)C(OCc3ccccc3)C2O1 (stereo not drawn) — IC50 (DNA ligase 1 (Homo sapiens, UniProt P18858); enzyme activity, inhibitor, radiometric): 380 µM
CSCC[C@H](NC(=O)[C@H](Cc1ccccc1)NC(=O)[C@H](Cc1cnc[nH]1)NC(=O)CNC(=O)[C@@H](NC(=O)[C@H](C)NC(=O)[C@H](Cc1c[nH]c2ccccc12)NC(=O)[C@H](CC(C)C)NC(=O)[C@H](CC(N)=O)NC(=O)CN)[C@@H](C)O)C(N)=O — IC50 (Gastrin-releasing peptide receptor (Mus musculus, UniProt P21729); cells, mouse): 0.052 ± 0.002 µM
COc1cccc(/C=N/NC(=O)COc2ccc(Sc3ccc(OCC(=O)N/N=C/c4cccc(OC)c4O)cc3)cc2)c1O — IC50 (Cholinesterase (BCHE, Equus caballus, UniProt P81908); enzyme activity, inhibitor, Ellman): 19 µM
CC(C)=CCC[C@](C)(O[C@@H]1O[C@H](CO)[C@@H](O)[C@H](O)[C@H]1O)[C@H]1CC[C@]2(C)[C@@H]1[C@H](O)C[C@@H]1[C@@]3(C)CC[C@H](O)C(C)(C)[C@@H]3CC[C@]12C — IC50 (GABRR1 (Homo sapiens, UniProt P24046); ion current, two-electrode voltage clamp; oocytes): 52.1 µM
O=C(O)c1ccccc1-c1c2ccc(=O)c([As]3SCCS3)c-2oc2c([As]3SCCS3)c(O)ccc12 — IC50 (PTPN6 (Homo sapiens, UniProt P29350); enzyme activity, inhibitor, absorbance; pH 7, with preincubation): ~0.7 µM
NC(=O)c1ccc(NC(=O)c2cccc(CC3CCCCC3)n2)c(Cc2ccccc2)c1 — IC50 (Capsid scaffolding protein, protease domain (Human herpesvirus 8 type P, UniProt Q2HRB6); pH 8): no inhibition
CC[C@@H]1C(=O)N(C)c2cnc(Nc3ccc(C(=O)NCCCC[C@H](NC(=O)COCCOCCNC(=O)COCCOCCNC(=O)COCCOCCNC(=O)COCCOCCNC(=O)[C@@H](NC(=O)[C@H](CO)NC(=O)[C@H](Cc4cncn4CCCCCCCCc4ccccc4)NC(=O)[C@H](CC(C)C)NC(=O)[C@@H]4CCCN4C(C)=O)[C@@H](C)OP(=O)(O)O)C(N)=O)cc3OC)nc2N1C1CCCC1 — IC50 (PLK2 (Homo sapiens, UniProt Q9NYY3); enzyme activity, inhibitor): 0.0016 µM
O=C1c2ccccc2[Se](=O)N1c1ccccc1 (stereo not drawn) — IC50 (HDAC1; enzyme activity, inhibitor, fluorescence): 2.26 µM
CC(C)[C@@H]1NC(=O)[C@H](CCC(N)=O)NC(=O)[C@@H]2CCCN2C(=O)[C@H](Cc2c[nH]cn2)NC(=O)CNC(=O)[C@@H](N)CSSC[C@@H](C(=O)NCC(N)=O)NC(=O)[C@@H]2CCCN2C1=O — IC50 (Streptavidin (Streptomyces avidinii, UniProt P22629)): 24 µM
NC(=O)COC(=O)c1cc(Br)ccc1F — IC50 (Urease; enzyme activity, inhibitor, absorbance): 0.32 µM
CC[C@H](C)[C@H](NC(=O)[C@@H](N)C(C)C)C(=O)N[C@@H](Cc1ccc(O)cc1)C(=O)NCC(=O)N1CCC[C@H]1C(=O)N[C@@H](CO)C(=O)N[C@H](C(=O)N[C@@H](Cc1ccccc1)C(=O)O)C(C)C — IC50 (ACE; enzyme activity, inhibitor, HPLC): 131 µM
F[P-](F)(F)(F)(F)F.OCP(CO)CO.OCP(CO)CO.OCP(CO)CO.OCP(CO)CO.[Cu+] — IC50 (PSMB6/PSMB5/PSMB7 (Homo sapiens, UniProt P28072+P28074+Q99436); proteasome T-L activity, inhibitor; LoVo; 24 h): 42 µM
CC[C@H](C)[C@H](NC(=O)[C@H](CC(=O)O)NC(=O)[C@H](CC(C)C)NC(=O)[C@H](Cc1cnc[nH]1)NC(=O)[C@@H]1CSSC[C@H](N)C(=O)N[C@@H](CO)C(=O)N[C@H]2CSSC[C@H](NC(=O)[C@H](CCC(=O)O)NC(=O)[C@H](CCCCN)NC(=O)[C@H](CC(=O)O)NC(=O)[C@H](CC(C)C)NC(=O)[C@H](Cc3c[nH]c4ccccc34)NC(=O)[C@H](CO)NC(=O)[C@H](CO)NC2=O)C(=O)N[C@@H](C(C)C)C(=O)N[C@@H](Cc2ccc(O)cc2)C(=O)N[C@@H](Cc2ccccc2)C(=O)N1)C(=O)N[C@H](C(=O)N[C@@H](Cc1c[nH]c2ccccc12)C(=O)O)[C@@H](C)CC — IC50 (EDNRA (Homo sapiens, UniProt P25101); ligand displacement, radioligand): 0.000288 µM
